Measured values of several laboratories.
Each line is one published result; not all experiments were run side by side. Several values in a cell are separate wells, animals, samples, runs or records. Numbers after ± are the reported error. Converted amounts (≈) assume the structure as drawn.
Chain of UniProt P10635 (whole entry, looked up): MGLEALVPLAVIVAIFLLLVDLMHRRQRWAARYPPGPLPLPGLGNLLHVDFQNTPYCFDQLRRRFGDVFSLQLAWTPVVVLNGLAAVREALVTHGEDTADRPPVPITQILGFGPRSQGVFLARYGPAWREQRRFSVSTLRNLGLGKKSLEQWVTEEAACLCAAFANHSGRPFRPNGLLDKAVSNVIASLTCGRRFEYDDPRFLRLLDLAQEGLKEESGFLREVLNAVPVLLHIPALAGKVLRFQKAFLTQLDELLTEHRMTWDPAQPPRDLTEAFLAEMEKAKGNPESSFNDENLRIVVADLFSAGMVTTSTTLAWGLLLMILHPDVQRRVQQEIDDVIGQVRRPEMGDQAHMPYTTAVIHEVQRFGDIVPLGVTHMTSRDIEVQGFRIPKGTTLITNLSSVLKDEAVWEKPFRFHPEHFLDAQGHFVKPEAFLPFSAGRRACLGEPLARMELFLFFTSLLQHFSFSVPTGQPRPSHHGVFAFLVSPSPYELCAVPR

SMILES	tested on	assay	test system	setting	how to read	endpoint	value
COCC1CN(C2CCN(c3cc(OC)c(Nc4ncc(Br)c(Nc5ccc6c(c5P(C)(C)=O)OCCO6)n4)cc3C)CC2)C1			EGFR-mutant NSCLC patients, plasma	oral, 150 mg single dose, geometric mean		t1/2	24.3 h
C=C[C@]1(C)C[C@@H](OC(=O)CSc2ccc(NC(=O)c3ccco3)cc2)[C@]2(C)[C@H](C)CC[C@]3(CCC(=O)[C@H]32)[C@@H](C)[C@@H]1O			M. gallisepticum-infected chickens, plasma	intramuscular, 5 mg/kg single dose		elimination half-life	4.21 h
O=C(NS(=O)(=O)c1cccs1)c1cc2ccccc2n1Cc1ccc(Br)c2ccccc12			rats	intravenous bolus, dose not given, 24 h		plasma concentration	not detected
Cc1ccc(CN2C(=O)/C(=N\c3ccc(Cl)cc3Br)c3ccccc32)cc1			mouse, blood	200 mg/kg		Mon%	2.37 ± 0.12%
O=S1(=O)CC2CCCCC2CS1 (stereo not shown)		phase solubility, NMR	water	25 °C, added: hydroxypropyl-β-cyclodextrin 241 mM		solubility	27.2 mM (≈ 5610 µg/mL)
CN1CCC(c2ccc(-c3ccc([C@H]4[C@@H](F)[C@@H](F)C[C@@H](F)[C@H]4F)cc3)cn2)CC1		hepatocyte stability	cryopreserved mouse hepatocytes	1 µM		hepatic clearance	45 mL/min/kg
CC(C(=O)O)n1nc(Cn2cc3cc(OCC[18F])c(Cl)cc3n2)c2ccccc2c1=O (racemic)			rat, heart	30 min		tracer uptake	0.25 %ID/g
CC[C@H](C)[C@@H]1NC(=O)[C@H](Cc2ccc(O)cc2)NC(=O)CCCSC[C@@H](C(=O)N(CC(=O)N[C@@H](CC(C)C)C(=O)NCC(N)=O)Cc2ccc(F)cc2)NC(=O)[C@H](CC(N)=O)NC(=O)[C@H](CCC(N)=O)NC1=O			human	intranasal, 400 µg repeated doses		drug-related headache	17%
CC(C)(C)C(=O)Nc1ccc2[nH]c(CN3CCC(N(CCCN4CCOCC4)CC4OC(n5cnc6c(N)ncnc65)C(O)C4O)CC3)nc2c1 (stereo not shown)			male Sprague-Dawley rat, plasma	intraperitoneal, 20 mg/kg, 4.98 min		concentration	1720 ng/mL
C=CC(=O)Nc1cc(Nc2nccc(-c3cn(C)c4ccccc34)n2)c(OC)cc1N(C)CCNC		storage stability	human plasma samples	30 d, -80 °C, MQC level	baseline: nominal concentration	percentage recovery	20.1%
COC(=O)[C@@]1(C)C=C(C(=O)Nc2cccc(C(=O)Nc3ccc(Nc4nccc(-c5cccnc5)n4)c(C)c3)c2)C(=O)CC1		metabolic stability	Wistar rat, male, primary hepatocytes	1 µM, 30 min		compound remaining	21.2%
CNC(=O)C1CCCN(C(=O)C2CC3CCC2N3C(=O)[C@@H]2C[C@@H](O)CN2C(=O)NCc2cccc(Cl)c2F)C1 (mixture of isomers)	Cytochrome P450 2D6 (CYP2D6, Homo sapiens, UniProt P10635)	enzyme activity, inhibitor, time-dependent inhibition		16.7 µM, preincubated with NADPH		dextrorphan formation	143 ng/mL
COc1cccc(OC)c1-c1cc(C(=O)NC2(C(=O)O)C3CC4CC(C3)CC2C4)nn1-c1ccc(C(=O)N(C)CCCN(C)CCCN(C)C(=O)[C@H](CCCCNC(=O)[C@H](CC(C)C)NC(=O)C2OC2C(=O)O)NC(=O)CN2CCN(CC(=O)[O-])CCN(CC(=O)[O-])CCN(CC(=O)[O-])CC2)cc1C(C)C.[177Lu+3] (mixture of isomers)			mouse, HT-29 xenograft	72 h post injection, biodistribution	baseline: tumour over bone uptake	tumour-to-bone ratio	38.8
CC[C@H](C)[C@H](NC(=O)[C@@H](NC(=O)[C@H](CCCCN)NC(=O)[C@@H](NC(=O)[C@@H]1CCCN1[C@@H]1CN(C(=O)[C@@H](NC(=O)[C@@H](NC(=O)[C@@H](NC(=O)[C@@H](NC(=O)[C@@H](NC(=O)[C@@H](N)CCCCN)C(C)C)C(C)C)C(C)C)[C@@H](C)CC)[C@@H](C)O)CC[C@H]1NS(=O)(=O)c1ccc(C)cc1)[C@@H](C)O)C(C)C)C(=O)N[C@@H](CC(C)C)C(=O)N[C@@H](Cc1c[nH]cn1)C(N)=O		circular dichroism	methanol	125 µM, 20 °C		helix content	0%
CCC1=[N+]2N=C(/C=C/c3ccccc3)C(=O)O[B-]2(c2ccccc2)Oc2cc(N(CC)CC)ccc21 (stereo not shown)			toluene			fluorescence lifetime	2.12 ns
CCCC[C@H](NC(=O)CNC(=O)CNC(=O)[C@H](CCCCNC(=O)[C@H](CC(=O)O)NC(=O)C(C)c1ccc(CC(C)C)cc1)NC(=O)CN1CCN(CC(=O)O)CCN(CC(=O)O)CCN(CC(=O)O)CC1)C(=O)N[C@H]1CC(=O)NCCCC[C@@H](C(N)=O)NC(=O)[C@H](Cc2c[nH]c3ccccc23)NC(=O)[C@H](CCCNC(=N)N)NC(=O)[C@@H](Cc2ccccc2)NC(=O)[C@H](Cc2c[nH]cn2)NC1=O (stereo partly shown) [lutetium-177 labelled]			C57 mouse, urine	intravenous, dose not given, 2 h, 177Lu-labelled, receptor blockade, added: unlabelled NDP-MSH 10 µg co-injected		urinary excretion	80 ± 2.02%
C=Cc1ccccc1[B-]12OC(=O)C(c3ccccc3)=N[N+]1=Cc1ccc(N(CC)CC)cc1O2 (stereo not shown)			toluene			fluorescence emission maximum	507 nm
CC(C)OCCOCc1ccc(OCC(O)CN(N=O)C(C)C)cc1 (stereo not shown)		mutation spectrum, duplex sequencing	NMRI mouse, liver	concentration not given		T>C mutation fraction	increased
Fc1ccc(OCC2CN(Cc3ncc4ccccn34)CCC2(F)F)cc1F (stereo not shown)		equilibrium dialysis	human plasma			fu	0.0055
COC1C=COC2(C)Oc3c(C)c(O)c4c(c3C2=O)C2=NC3(CCN(CC(C)C)CC3)NC2=C(NC(=O)C(C)=CC=CC(C)C(O)C(C)C(O)C(C)C(OC(=O)Nc2cnccn2)C1C)C4=O (stereo not shown)			CD-1 mouse female, plasma	oral, 10 mg/kg		fAUC/MIC ratio	88.8

SMILES	tested on	assay	test system	setting	how to read	endpoint	value
CC(C)OC(=O)[C@H](CO)NCc1cc(Cl)c(OCc2cccc(-c3ccccc3)c2Br)cc1OCc1cccnc1			hPD-L1 MC-38 tumour, humanised hPD-1 C57BL/6 mouse	oral, 10 mg/kg × 21, day 1, baseline		body weight	19.7 ± 1 g
CN(C)C(=O)CNC(=O)c1ccc([C@H]2[C@@H](F)[C@@H](F)C[C@@H](F)[C@H]2F)cc1		hepatocyte stability	cryopreserved rat hepatocytes	1 µM		hepatic clearance	10 mL/min/kg
O=C(Nc1cnccc1-c1ccc([18F])cc1)c1ccnc(NC(=O)C2CC2)c1			FVB/NJ mice (both sexes), spleen	intravenous, dose not given, 120 min, added: tariquidar 15 mg/kg i.v. pre-dose		SUV	0.36
F[C@@H]1[C@H](c2ccc(-c3cncnc3)cc2)[C@H](F)[C@H](F)C[C@@H]1F		hepatocyte stability	cryopreserved mouse hepatocytes	1 µM		hepatic clearance	51 mL/min/kg
CC1(C)CCC(CN2CCN(c3ccc(C(=O)NS(=O)(=O)c4ccc(NCC5COCCO5)c([N+](=O)[O-])c4)c(N4CCCOc5nc6[nH]ccc6cc54)c3)CC2)=C(c2ccc(Cl)cc2)C1 (stereo not shown)			male beagle dog, plasma	oral, 25 mg/kg, single dose		AUC(0-t)	130 µg·h/mL
CC(C)=CCc1cc(C(=O)/C=C/c2ccc(O)cc2)c(O)cc1O		phase I metabolism	rat liver microsomes			CLint	13.3 µL/min/mg
O=C(CC1CCOCC1)Nc1ccc([C@H]2[C@@H](F)[C@@H](F)C[C@@H](F)[C@H]2F)cc1		liver microsome stability	cynomolgus liver microsomes	1 µM		hepatic clearance	4.9 mL/min/kg
C=C1C[C@]2(C(=O)OC)C=C(C(=O)Nc3cccc(C(=O)Nc4ccc(Nc5nccc(-c6cccnc6)n5)c(C)c4)c3)C(=O)[C@H]1C2			Wistar rat, male, plasma	10 µM, 15 min		compound remaining	3.21%
C=CC(=O)N1CCCC(n2c(=O)c3ncccc3n(Cc3ccc(Oc4ccccc4)cc3)c2=O)C1 (stereo not shown)		metabolic stability	human, hepatocytes	1 µM, 90 min		compound remaining	46.5%
CCCNC(=O)[C@H]1O[C@@H]1C(=O)N[C@H](C(=O)N1CCC[C@H]1C(=O)OCC1=C2C(C)=CC(C)=[N+]2[B-](C)(C)n2c(C)cc(C)c21)[C@@H](C)CC		Nd:YAG laser irradiation	methanol	irradiation at 532 nm		photodecomposition quantum yield	2.46 ± 0.19%
CN(C(=O)C(C)(C)c1cc(C(F)(F)F)cc(C(F)(F)F)c1)c1cnc(N2C[C@H]3COCCN3C[C@H]2CO)cc1-c1ccc(F)cc1CO			healthy male human	oral, 120 mg, up to 480 h cumulative	baseline: dose	amount excreted in faeces	~3% and 3.13%
[123I]c1ccc2nc(-c3ccc(-n4ccnn4)nc3)cn2c1			male Wistar rat, pancreas	intravenous, 4 MBq, 14 h		tracer uptake	0.005 %ID/g
Cc1ccc(-c2ccc([C@H]3[C@@H](F)[C@@H](F)C[C@@H](F)[C@H]3F)cc2)cn1		liver microsome stability	rat liver microsomes	1 µM		hepatic clearance	32 mL/min/kg
CC(C)C[C@H](NC(=O)[C@H](CCCN)NC(=O)CNC(=O)[C@@H](NC(=O)[C@H](C)NC(=O)[C@@H]1CSCSC[C@H](NC(=O)CC[C@H](N)C(=O)O)C(=O)N[C@@H](CC(N)=O)C(=O)N[C@@H]([C@@H](C)O)C(=O)N[C@@H](C)C(=O)N[C@@H]([C@@H](C)O)C(=O)N1)[C@@H](C)O)C(=O)N[C@@H](C)C(=O)N[C@@H](CCC(=O)O)C(=O)N[C@@](C)(Cc1ccccc1)C(=O)N[C@@H](CC(C)C)C(=O)N[C@H](C(=O)N[C@@H](CCCNC(=N)N)C(=O)N[C@@H](CO)C(=O)N[C@@H](CO)C(=O)N[C@@H](CC(N)=O)C(=O)N(C)[C@@H](CC(N)=O)C(=O)N[C@@H](Cc1ccccc1)C(=O)NCC(=O)N1CCC[C@H]1C(=O)N[C@@H](CCCCNC(=O)CC[C@H](NC(=O)CC[C@H](NC(=O)CCCCCCCCCCCCCCCCCCC(=O)O)C(=O)O)C(=O)O)C(=O)N[C@@H](CC(C)C)C(=O)N1CCC[C@H]1C(=O)N1CCC[C@H]1C(=O)N[C@H](C(=O)N[C@@H](CCC(=O)O)C(=O)N[C@H](C(=O)NCC(=O)N[C@@H](CO)C(=O)N[C@@H](CC(N)=O)C(=O)N[C@H](C(=O)N[C@@H](Cc1ccc(O)cc1)C(N)=O)[C@@H](C)O)C(C)C)[C@@H](C)O)C(C)C			healthy humans, plasma	subcutaneous, dose not given		AUC(0-inf)	62.9 µg·h/mL
O=C(NCCO)c1ccc([C@H]2[C@@H](F)[C@@H](F)C[C@@H](F)[C@H]2F)cc1		liver microsome stability	mouse liver microsomes	1 µM		hepatic clearance	14 mL/min/kg
O=C(Nc1cnccc1-c1ccc([18F])nc1)c1ccnc(NC(=O)C2CC2)c1		ex vivo gamma counting	FVB/NJ mice, both sexes, right kidney	intravenous, 120 min		mean SUV	0.311
O=C(c1ccc(C2CCCCC2)cc1)N1CCCC1		liver microsome stability	dog liver microsomes	1 µM		hepatic clearance	30 mL/min/kg
CN1CCC[C@]1(C)/C=C/S(=O)(=O)NC(=O)Nc1c2c(cc3c1CC(O)C3)CCC2 (stereo partly shown)			human, plasma	oral, 100 mg twice daily of parent drug, day 14, metabolite of dosed drug		AUC(0-inf)	290 µg·h/mL
C=C(NC(=O)c1csc(-c2nc3c(cc2O)-c2nc(cs2)C(=O)NC(C(C)O)C(=O)NC(=C(C)OC)c2nc(cs2)C(=O)NC2c4nc(cs4)C(=O)NC(COC(=O)c4c5c6c(cccc6n4O)COC(=O)C(OC4CC(C)(O)C(N(C)C)C(C)O4)C2OC5)c2nc-3cs2)n1)C(N)=O (stereo not shown)			cynomolgus monkey, both sexes, plasma	intravenous infusion, 1.5 mg/kg twice daily, 6 to 12 h, second dose		Cmax	11900 ± 7800 ng/mL
C/C(N)=N/C(=N\S(=O)(=O)c1ccc(C(F)(F)F)cc1)N1C[C@H](c2ccccc2)C(c2ccc(Cl)cc2)=N1			male Sprague-Dawley rat, plasma	oral, 30 mg/kg		half-life	5 h

For quick reference, copied from above:
SMILES	tested on	assay	test system	setting	how to read	endpoint	value
CN1CCC[C@]1(C)/C=C/S(=O)(=O)NC(=O)Nc1c2c(cc3c1CC(O)C3)CCC2 (stereo partly shown)			human, plasma	oral, 100 mg twice daily of parent drug, day 14, metabolite of dosed drug		AUC(0-inf)	290 µg·h/mL
COc1cccc(OC)c1-c1cc(C(=O)NC2(C(=O)O)C3CC4CC(C3)CC2C4)nn1-c1ccc(C(=O)N(C)CCCN(C)CCCN(C)C(=O)[C@H](CCCCNC(=O)[C@H](CC(C)C)NC(=O)C2OC2C(=O)O)NC(=O)CN2CCN(CC(=O)[O-])CCN(CC(=O)[O-])CCN(CC(=O)[O-])CC2)cc1C(C)C.[177Lu+3] (mixture of isomers)			mouse, HT-29 xenograft	72 h post injection, biodistribution	baseline: tumour over bone uptake	tumour-to-bone ratio	38.8
CCCNC(=O)[C@H]1O[C@@H]1C(=O)N[C@H](C(=O)N1CCC[C@H]1C(=O)OCC1=C2C(C)=CC(C)=[N+]2[B-](C)(C)n2c(C)cc(C)c21)[C@@H](C)CC		Nd:YAG laser irradiation	methanol	irradiation at 532 nm		photodecomposition quantum yield	2.46 ± 0.19%
CC[C@H](C)[C@H](NC(=O)[C@@H](NC(=O)[C@H](CCCCN)NC(=O)[C@@H](NC(=O)[C@@H]1CCCN1[C@@H]1CN(C(=O)[C@@H](NC(=O)[C@@H](NC(=O)[C@@H](NC(=O)[C@@H](NC(=O)[C@@H](NC(=O)[C@@H](N)CCCCN)C(C)C)C(C)C)C(C)C)[C@@H](C)CC)[C@@H](C)O)CC[C@H]1NS(=O)(=O)c1ccc(C)cc1)[C@@H](C)O)C(C)C)C(=O)N[C@@H](CC(C)C)C(=O)N[C@@H](Cc1c[nH]cn1)C(N)=O		circular dichroism	methanol	125 µM, 20 °C		helix content	0%
